Measured values from different studies.
Lines come from different studies, so protocols differ. Values joined by “and” are separate records of one study, mostly repeats; a detail may differ. Numbers after ± are the reported error.
BPTF bromodomain: Nucleosome-remodeling factor subunit BPTF, bromodomain (BPTF, Homo sapiens, UniProt Q12830)
LGALS1: Galectin-1 (LGALS1, Homo sapiens, UniProt P09382)

C#CCN(CC(=O)N(CCOC)CC(=O)N(CCOC)CC(N)=O)C(=O)CN(CCOC)C(=O)CN(CCN1CCOCC1)C(=O)CN(Cc1ccc2c(c1)OCO2)C(=O)CN(CC=C)C(=O)[C@H](C)NCc1ccc(OC)cc1 — Kd (MMP14 (Homo sapiens, UniProt P50281); binding, FP): 2.7 µM
CC[C@H](C)[C@H](NC(=O)[C@H](CCCCN)NC(=O)[C@H](CCCCN)NC(=O)[C@@H](NC(=O)[C@H](CCC(=O)O)NC(=O)[C@H](CCC(=O)O)NC(=O)[C@H](CCC(=O)O)NC(=O)[C@H](CO)NC(=O)[C@H](CC(C)C)NC(=O)[C@H](CC(=O)O)NC(=O)[C@H](CC(C)C)NC(=O)CNC(=O)[C@H](CCCNC(=N)N)NC(=O)[C@H](CC(C)C)NC(=O)[C@H](CO)NC(=O)CNC(=O)CNC(=O)CNC(=O)CCCC[C@@H]1SC[C@@H]2NC(=O)N[C@@H]21)C(C)C)C(=O)N[C@@H](CC(C)C)C(=O)N[C@@H](CC(=O)O)C(=O)N[C@@H](CCC(=O)O)C(=O)N[C@@H](C)C(=O)N[C@H](C(=O)N[C@@H](CCCCN)C(=O)N[C@@H](CC(=O)O)C(=O)O)C(C)C — Kd (Fab B11 antibody (human); binding, biolayer interferometry; together with: biotinylated peptide on tips): 0.02 ± 0.001 µM
CC(=O)NCCCC[C@H](NC(=O)CNC(=O)CNC(=O)[C@H](C)NC(=O)[C@@H](N)Cc1ccc(O)cc1)C(=O)N[C@@H](C)C(=O)NCC(=O)N[C@@H](CCCCN)C(=O)N[C@@H](CC(=O)O)C(=O)N[C@@H](CO)C(=O)NCC(=O)N[C@@H](CCCCN)C(=O)N[C@@H](C)C(=O)N[C@@H](CCCCN)C(=O)N[C@H](C(=O)N[C@@H](CCCCNC(C)=O)C(=O)N[C@@H](C)C(=O)N[C@H](C(=O)N[C@@H](CO)C(=O)N[C@@H](CCCNC(=N)N)C(N)=O)C(C)C)[C@@H](C)O — Kd (BPTF bromodomain; bromodomain binding, PrOF NMR titration; pH 7.4, 5-fluorotryptophan-labelled bromodomain, 40-50 µM): 630 µM
CN(C)CCNC(=O)c1cccc2c(NCCCCc3c(N)nc(N)nc3N)c3ccccc3nc12 — Kd ((CCUG)6 RNA; binding, ITC; 25 °C, binding site 2): 478 ± 85 µM
COc1ccc(Cc2cc3c4c(c2)O[C@H](CO)[C@H](O)[C@@H]4OC3)cc1 — Kd (LGALS1; ligand displacement, FP): 1500 µM
O=C(O)C1(O)Oc2cc(F)ccc2N(Cc2ccccc2)C1=O (stereo not shown) — Kd (Dihydroxy-acid dehydratase, chloroplastic (DHAD, Arabidopsis thaliana, UniProt Q9LIR4); microscale thermophoresis): 1.43 µM and < 3 µM
CSCC[C@H](NC(=O)[C@H](CCC(N)=O)NC(=O)[C@H](CCCCN)NC(=O)[C@H](CCCCN)NC(=O)[C@H](CO)NC(=O)[C@H](Cc1ccccc1)NC(=O)[C@H](Cc1ccccc1)NC(=O)[C@H](CO)NC(=O)[C@H](CC(C)C)NC(=O)[C@@H](NC(=O)CNC(=O)[C@H](CCCNC(=N)N)NC(=O)[C@H](CO)NC(=O)[C@H](C)NC(=O)[C@@H](N)CS)C(C)C)C(=O)N[C@@H](CCC(N)=O)C(=O)N[C@@H](CC(=O)O)C(=O)O — Kd (DNA repair protein REV1 (Homo sapiens, UniProt Q9UBZ9); binding, SPR; pH 7.5): ~13 µM
O=C(Cc1cccc(C(F)(F)F)c1)Nc1cc(Oc2c(F)cc3nc(NC(=O)C4CC4)sc3c2F)ccc1F — Kd (RIPK3 (Homo sapiens, UniProt Q9Y572); binding, competition with immobilised ligand): > 5 µM
CCN(CC)C1CCN(Cc2cc(C#CCN)cc(I)c2O)CC1 — Kd (TP53 (Homo sapiens, UniProt P04637, M133L/N239Y/N268D/V203A/Y220C); 20 °C, protein 75 µM): 1080 ± 360 µM
CC[C@H](C)[C@H](NC(=O)[C@H](CCCCN)NC(=O)[C@H](CCCCN)NC(=O)[C@@H](NC(=O)[C@H](CCC(=O)O)NC(=O)[C@H](CCC(=O)O)NC(=O)[C@H](CCC(=O)O)NC(=O)[C@H](CO)NC(=O)[C@H](CC(C)C)NC(=O)[C@H](CC(=O)O)NC(=O)[C@H](CC(C)C)NC(=O)CNC(=O)[C@H](CCCNC(=N)N)NC(=O)[C@H](CC(C)C)NC(=O)[C@H](CO)NC(=O)CNC(=O)CNC(=O)CNC(=O)CCCC[C@@H]1SC[C@@H]2NC(=O)N[C@@H]21)C(C)C)C(=O)N[C@@H](CC(C)C)C(=O)N[C@@H](CC(=O)O)C(=O)N[C@@H](CCC(=O)O)C(=O)N[C@H](C(=O)N[C@H](C(=O)N[C@@H](CCCCN)C(=O)N[C@@H](CC(=O)O)C(=O)N1CCC[C@H]1C(=O)N[C@@H](CO)C(=O)N[C@@H](C)C(=O)O)C(C)C)[C@@H](C)CC — Kd (Fab B11 antibody (human); binding, biolayer interferometry; together with: biotinylated peptide on tips): 0.036 ± 0.001 µM
OC[C@H]1Oc2cc(I)cc3c2[C@@H](OC3)[C@H]1O — Kd (Galectin-9, N-terminal CRD (LGALS9, Homo sapiens, UniProt O00182); binding, competitive fluorescence polarization; 20 °C, galectin-9 N-terminal domain 1.0 µM): > 2000 µM
CC(=O)NCCCC[C@H](NC(=O)CNC(=O)CNC(=O)[C@H](C)NC(=O)[C@@H](N)Cc1ccc(O)cc1)C(=O)N[C@@H](C)C(=O)NCC(=O)N[C@@H](CCCCN)C(=O)N[C@@H](CC(=O)O)C(=O)N[C@@H](CO)C(=O)NCC(=O)N[C@@H](CCCCNC(C)=O)C(=O)N[C@@H](C)C(=O)N[C@@H](CCCCN)C(=O)N[C@@H](C)C(=O)N[C@@H](CCCCN)C(=O)N[C@@H](C)C(=O)N[C@H](C(=O)N[C@@H](CO)C(=O)N[C@@H](CCCNC(=N)N)C(N)=O)C(C)C — Kd (BPTF bromodomain; bromodomain binding, PrOF NMR titration; pH 7.4, 5-fluorotryptophan-labelled bromodomain, 40-50 µM): 760 µM
CNc1ccccc1C(=O)O[C@H]1C[C@H](n2cnc3c(N)ncnc32)O[C@@H]1COP(=O)(O)OP(=O)(O)O — Kd (Unconventional myosin-Va (Gallus gallus, UniProt Q02440, D297C/G292C/I296C/S293C/V295G); binding, ligand, stopped-flow FRET; 25 °C, together with: 4 mM EDTA): 2.55 ± 1.17 µM
CC[C@H](C)[C@H](NC(=O)[C@H](CCC(=O)O)NC(=O)[C@@H](NC(=O)[C@H](CCC(N)=O)NC(=O)[C@@H](N)CCCCN)[C@@H](C)CC)C(=O)N[C@@H](CCCCN)C(=O)N[C@@H](CCCCN)C(=O)N[C@@H](Cc1ccccc1)C(=O)N[C@@H](CCCCN)C(=O)O — Kd (Gap junction alpha-1 protein, C-terminal tail 255-382 (GJA1, Homo sapiens, UniProt P17302); binding, SPR; Cx43 C-terminal tail): ~2.5 µM
CN1CCC(NC(=O)c2ccc(-c3cc(-c4ccc(F)cc4)c4oc5c(c4c3)CCN(C(=O)/C=C/c3ccc(N)nc3)C5)nn2)C(F)(F)C1 (stereo not shown) — Kd (PAK4 (Homo sapiens, UniProt O96013); surface plasmon resonance): 8.2 µM
CC(=O)NCCCC[C@H](NC(=O)CNC(=O)[C@H](CO)NC(=O)[C@H](CC(=O)O)NC(=O)[C@H](CCCCN)NC(=O)CNC(=O)[C@H](C)NC(=O)[C@H](CCCCN)NC(=O)CNC(=O)CNC(=O)[C@H](C)NC(=O)[C@@H](N)Cc1ccc(O)cc1)C(=O)N[C@@H](C)C(=O)N[C@@H](CCCCN)C(=O)N[C@H](C(=O)N[C@@H](CCCCNC(C)=O)C(=O)N[C@@H](C)C(=O)N[C@H](C(=O)N[C@@H](CO)C(=O)N[C@@H](CCCNC(=N)N)C(N)=O)C(C)C)[C@@H](C)O — Kd (BPTF bromodomain; bromodomain binding, PrOF NMR titration; pH 7.4, 5-fluorotryptophan-labelled bromodomain, 40-50 µM): 950 µM
C[Si](C)(C)c1cc2c3c(c1)O[C@H](CO)[C@H](O)[C@@H]3OC2 — Kd (LGALS1; ligand displacement, FP): > 6000 µM
C[C@H](NC(=O)[C@H](Cc1ccc(O)cc1)NC(=O)[C@H](Cc1ccccc1)NC(=O)[C@H](CCC(=O)O)NC(=O)[C@H](CCC(=O)O)NC(=O)[C@H](CCC(N)=O)NC(=O)[C@H](CCCCN)NC(=O)[C@@H](NS(=O)(=O)c1cccc2c(N(C)C)cccc12)[C@@H](C)O)C(=O)O — Kd (Rho guanine nucleotide exchange factor TIAM1, PDZ domain (TIAM1, Homo sapiens, UniProt Q13009, K879E); fluorescence anisotropy; 25 °C, together with: N-terminally dansylated peptide): 64.7 ± 0.9 µM
CCCN(CC(=O)N(CCC)CC(=O)N(CCC)CC(=O)N(CCC)CC(=O)N(CC(=O)N(CCC)CC(=O)N(CCC)CC(=O)N(CCC)CC(=O)N(CCC)CC(=O)N(CC(=O)N(CCC)CC(=O)N(CCC)CC(=O)N(CCC)CC(=O)N(CCC)CC(=O)N(CC(N)=O)Cc1cn(CCCNC(=O)CCCOc2cccc(-c3nc4ccc(-c5nc6ccc(N7CCN(C)CC7)cc6[nH]5)cc4[nH]3)c2)nn1)Cc1cn(CCCNC(=O)CCCOc2cccc(-c3nc4ccc(-c5nc6ccc(N7CCN(C)CC7)cc6[nH]5)cc4[nH]3)c2)nn1)Cc1cn(CCCNC(=O)CCCOc2cccc(-c3nc4ccc(-c5nc6ccc(N7CCN(C)CC7)cc6[nH]5)cc4[nH]3)c2)nn1)C(=O)CNCc1cn(CCCNC(=O)CCCOc2cccc(-c3nc4ccc(-c5nc6ccc(N7CCN(C)CC7)cc6[nH]5)cc4[nH]3)c2)nn1 — Kd (r(CUG)109 RNA hairpin; binding, fluorescence): 0.035 ± 0.004 µM

Repeated from above:
COc1ccc(Cc2cc3c4c(c2)O[C@H](CO)[C@H](O)[C@@H]4OC3)cc1 — Kd (LGALS1; ligand displacement, FP): 1500 µM
O=C(O)C1(O)Oc2cc(F)ccc2N(Cc2ccccc2)C1=O (stereo not shown) — Kd (Dihydroxy-acid dehydratase, chloroplastic (DHAD, Arabidopsis thaliana, UniProt Q9LIR4); microscale thermophoresis): 1.43 µM and < 3 µM
CSCC[C@H](NC(=O)[C@H](CCC(N)=O)NC(=O)[C@H](CCCCN)NC(=O)[C@H](CCCCN)NC(=O)[C@H](CO)NC(=O)[C@H](Cc1ccccc1)NC(=O)[C@H](Cc1ccccc1)NC(=O)[C@H](CO)NC(=O)[C@H](CC(C)C)NC(=O)[C@@H](NC(=O)CNC(=O)[C@H](CCCNC(=N)N)NC(=O)[C@H](CO)NC(=O)[C@H](C)NC(=O)[C@@H](N)CS)C(C)C)C(=O)N[C@@H](CCC(N)=O)C(=O)N[C@@H](CC(=O)O)C(=O)O — Kd (DNA repair protein REV1 (Homo sapiens, UniProt Q9UBZ9); binding, SPR; pH 7.5): ~13 µM
